{"data": "Measurements collected from several papers", "target": "BDNF/NT-3 growth factors receptor (NTRK2, Homo sapiens, UniProt Q16620)", "sequence of UniProt Q16620 (whole entry, looked up)": "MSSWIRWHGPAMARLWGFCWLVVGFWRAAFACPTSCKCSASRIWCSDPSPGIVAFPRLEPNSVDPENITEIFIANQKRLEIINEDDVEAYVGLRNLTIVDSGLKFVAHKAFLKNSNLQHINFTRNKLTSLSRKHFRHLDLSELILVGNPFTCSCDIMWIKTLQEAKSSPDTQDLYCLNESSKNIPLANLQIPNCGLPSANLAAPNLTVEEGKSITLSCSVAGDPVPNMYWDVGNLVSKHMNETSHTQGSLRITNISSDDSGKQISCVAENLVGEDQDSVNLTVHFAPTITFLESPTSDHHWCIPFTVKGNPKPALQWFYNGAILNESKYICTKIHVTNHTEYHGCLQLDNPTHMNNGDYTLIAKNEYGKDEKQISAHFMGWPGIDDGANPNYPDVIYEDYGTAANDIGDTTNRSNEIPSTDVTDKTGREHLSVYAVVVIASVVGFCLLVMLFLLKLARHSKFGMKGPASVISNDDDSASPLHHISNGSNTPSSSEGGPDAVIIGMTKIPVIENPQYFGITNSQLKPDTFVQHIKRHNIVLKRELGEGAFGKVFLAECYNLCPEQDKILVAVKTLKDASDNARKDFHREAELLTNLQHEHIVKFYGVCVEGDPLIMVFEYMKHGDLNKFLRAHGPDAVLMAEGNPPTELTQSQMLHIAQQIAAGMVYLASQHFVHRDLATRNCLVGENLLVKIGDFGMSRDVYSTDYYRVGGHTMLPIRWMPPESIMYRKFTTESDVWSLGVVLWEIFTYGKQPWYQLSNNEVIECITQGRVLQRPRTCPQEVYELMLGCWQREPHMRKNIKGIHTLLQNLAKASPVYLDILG"}
{"Compound": "Cc1cc(C(=O)Nc2ccc3[nH]ncc3c2)ccc1NC(=O)Nc1cc(C(F)(F)F)ccc1F", "test": "enzyme activity, inhibitor, FRET", "setting": "1 µM", "measurement": "inhibition", "result": "11.9%"}
{"Compound": "C=CC(=O)N1CCc2ccc(-n3c(=O)ccc4cnc5ccc(-c6cnn(C)c6)cc5c43)cc21", "test": "KINOMEscan", "setting": "1 µM", "scale": "reference: DMSO control", "measurement": "remaining binding", "result": "97%"}
{"Compound": "CNC1C[S+]2CC[S+]3CC[S+](C1)[Ru-4]321([N]=C=S)[n]2c3ccc(OC)cc3c3c4c(c5cc(F)c[n+]1c5c32)C(=O)NC4=O (stereo not drawn)", "test": "KinomeScan", "setting": "0.1 µM", "scale": "reference: untreated", "measurement": "remaining binding", "result": "100%"}
{"Compound": "CC(C)=CC1OC(C)(C)C2C=C3C(=O)C(Cl)=CC(O)C3C3C(O)C4OC4C(=O)C132 (stereo not drawn)", "test": "cell-free assay, competition with immobilised ligand", "setting": "10 µM", "measurement": "remaining binding", "result": "54%"}
{"Compound": "CNC(=O)C1CCN(c2cc(C)c(F)cc2NC(=O)c2ccc(-c3cc(O)ccc3C)c(C)c2)CC1", "test": "binding, competition with immobilised ligand", "setting": "1 µM", "measurement": "remaining binding", "result": "48%"}
{"Compound": "CCN1CCN(Cc2ccc(NC(=O)c3ccc(C)c(NC(=O)c4cncc(-c5cnn(C)c5)c4)c3)cc2C(F)(F)F)CC1", "test": "binding, competition with immobilised ligand", "setting": "1 µM", "measurement": "remaining binding", "result": "53%"}
{"Compound": "NCc1ccc(-c2cc(=O)c3ccc4[nH]c(C(F)(F)F)nc4c3o2)cc1", "test": "agonist, MTT", "setting": "concentration not given, added: staurosporine", "measurement": "antiapoptotic activity", "result": "decreased"}
{"Compound": "C=CC(=O)N1CCCC(n2c(=O)c3ncccc3n(Cc3ccc(Oc4ccccc4)cc3)c2=O)C1 (stereo not drawn)", "test": "cell-free assay, competition with immobilised ligand", "setting": "1 µM", "measurement": "remaining binding", "result": "78%"}
{"Compound": "COc1cc(Nc2nccc(-c3cnn4nc(OC)ccc34)n2)cc(C(F)(F)F)c1", "test": "binding, competition with immobilised ligand", "setting": "1 µM", "measurement": "remaining binding", "result": "67%"}
{"Compound": "O=C(CN1CCN(C(=O)c2ccc(F)cc2)CC1)Nc1cccc(C(=O)Nc2ccc3[nH]ncc3c2)c1", "test": "enzyme activity, inhibitor, FRET", "setting": "1 µM", "measurement": "inhibition", "result": "9.33%"}
{"Compound": "Cc1cnc2nc1Nc1cccc(c1)COC/C=C/COCc1cc(ccc1OCCN1CCOCC1)N2", "test": "binding, competition with immobilised ligand", "setting": "0.1 µM", "measurement": "remaining binding", "result": "85%"}
{"Compound": "COc1cc(NC(=O)Nc2cc(C(F)(F)F)ccc2F)ccc1C(=O)Nc1ccc2[nH]ncc2c1", "test": "enzyme activity, inhibitor, FRET", "setting": "1 µM", "measurement": "inhibition", "result": "19.7%"}
{"Compound": "O=C(Cc1ccc(OCc2ccccc2)cc1)NC1(C(=O)O)CCN(C(=O)c2ccc(-c3cccc(Cl)c3)cc2)CC1", "test": "enzyme activity, inhibitor", "setting": "10 µM", "measurement": "activity vs control", "result": "128%"}
{"Compound": "O=C(Nc1cc(C(=O)Nc2ccc3[nH]ncc3c2)ccc1F)Nc1cc(C(F)(F)F)ccc1F", "test": "enzyme activity, inhibitor, FRET", "setting": "1 µM", "measurement": "inhibition", "result": "14.9%"}
{"Compound": "Cc1ccc(-c2c(/C=C(\\C#N)C(=O)NC(C)C)n(CCCO)c3ncnc(N)c23)cc1", "test": "cell-free assay, competition with immobilised ligand", "setting": "1 µM", "measurement": "remaining binding", "result": "99%"}
{"note": "Repeated from above:"}
{"Compound": "NCc1ccc(-c2cc(=O)c3ccc4[nH]c(C(F)(F)F)nc4c3o2)cc1", "test": "agonist, MTT", "setting": "concentration not given, added: staurosporine", "measurement": "antiapoptotic activity", "result": "decreased"}
{"Compound": "Cc1cc(C(=O)Nc2ccc3[nH]ncc3c2)ccc1NC(=O)Nc1cc(C(F)(F)F)ccc1F", "test": "enzyme activity, inhibitor, FRET", "setting": "1 µM", "measurement": "inhibition", "result": "11.9%"}
